Measurements gathered from unrelated publications.
A part holds a random share of what one study measured. Substitutions count along the parent as printed.

Series 1 — target: CCNA2, cyclin fold, Cln2 fusion (human); technique: yeast growth competition, sequencing; medium: yeast; notes: strong parent motif; baseline: not given; direction: higher = stronger binding
Parent: GMNC docking peptide (human); KNAKRNLSSEFAN
| Variant | normalised enrichment score |
| --- | --- |
| N2G | 6.07 |
| S8T | 4.48 |
| L7K | 1.18 |
| F11R | 0.256 |
| N2H | 5.26 |
| R5N | 0.432 |
| S8Y | 5.67 |
| R5D | -0.0405 |
| S9F | 5.65 |
| L7H | 0.501 |
| E10D | 3.56 |
| A3D | 0.641 |
| S9R | 6.26 |
| N6K | 2.81 |
| L7V | 0.441 |
| F11V | 0.16 |
| L7P | 0.07 |
| K4E | 0.107 |
| E10G | 1.13 |
| A3S | 3.44 |
| S9Q | 5.11 |
| F11L | 2.82 |
| S9H | 5.33 |
| N2R | 6 |
| A12T | 5.11 |

Series 2 — target: CREBRF, bZIP domain (human); technique: DHFR protein complementation; medium: yeast; baseline: wild-type JUN-FOS pair; direction: higher = stronger binding
Notes: single substitutions, most at no-binding floor
Parent: JUN, bZIP domain (human); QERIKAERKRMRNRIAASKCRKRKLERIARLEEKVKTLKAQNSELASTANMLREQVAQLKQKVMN; partner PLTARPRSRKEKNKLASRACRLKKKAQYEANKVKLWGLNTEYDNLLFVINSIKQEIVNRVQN
| Variant | binding fitness [natural log] |
| --- | --- |
| A49H | -1.52 |
| A49K | -1.3 |
| A49T | -1.55 |
| E32K | -1.29 |
| R53C | -1.46 |
| L52F | -1.65 |
| E44I | -1.23 |
| K34V | -1.58 |
| A57K | -1.54 |
| L52A | -1.58 |
| L45H | -1.56 |
| K39Q | -1.28 |
| T37D | -1.32 |
| E33G | -1.46 |
| E54L | -1.27 |

Series 3 — technique: RNA Bind-n-Seq; molecule type: RNA; medium: in vitro; concentration: 200 nM; notes: whole 134-nt RNA, ends assumed; with: 150 mM KCl; baseline: input library; direction: higher = stronger binding
Target: Fragile X messenger ribonucleoprotein 1, C-terminal low-complexity region (Fmr1, Mus musculus, UniProt P35922)
All sequences stand within: GGGAGUUCUACAGUCCGACGAUC … UGGAAUUCUCGGGUGUCAAGG
| Oligonucleotide | log2 enrichment |
| --- | --- |
| CAAGUCCUGUGCUACACAUCGUAUGUACCGAAUCGGGUUUGGGGUUUGGGGUUUGGAAAGUAUUAUGUUACGCCGUUCGGAUCUGCACUU | -0.127 |
| CCUCAAGUCCUGUGCUACACAUCGUAUGUACCGAAUCGGGAGGAGGGGAGGGAAAGUAUUAUGUUACGCCGUUCGGAUCUGCACUUCCAG | 1.32 |
| UAACUUUAGAGGAGGAUCUGAUGGAUAUGGCAGUGGACGUGGAUUUGGGGAUGGCUAUAAUGGGUCUGGAGGAGGACCUGGAGGUGGCAA | 0.224 |
| UCCUGUGCUACACAUCGUAUGUACCGAAUCAAAUUUUUUUAAACCCCCCCAAACCCAAAAAAGUAUUAUGUUACGCCGUUCGGAUCUGCA | 0.0497 |
| UUUUCAAGGGCCGCUUGAAGAUGCCAUUGAAGAUGAGGAAGAAGAAUGUCCAUCAGAGGAAACAGACAUCAUCUCCAAAGGAGACUUUCC | -1.55 |
| AGUCCUGUGCUACACAUCGUAUGUACCGAAUCGGUUUUUUUGGUUUUUGGAAAAAGGAAAGUAUUAUGUUACGCCGUUCGGAUCUGCACU | -1.09 |
| GUCCUGUGCUACACAUCGUAUGUACCGAAUCAAAUUUUUAAAUUUUUUUAAACCCAAAAAAGUAUUAUGUUACGCCGUUCGGAUCUGCAC | 0.0482 |
| UCAACAAGAGAUGUUCAAGAACUUUUGACACAAUAUACCAAGUUUGCACAGAUGGUAAAAAAGAUGGGAGGUAUCAAAGGACUUUUCAAA | 0.162 |
| ACCAUGCAGGUGGGCAUCUUUGGGAAGUGGGGCAAGGGGGGGAUAGGGAGGGGGGUAACACUUUGGGAACAGGUGGUCCCAGGUCCUUUC | 0.71 |

Series 4 — technique: protein-binding microarray; molecule type: double-stranded DNA, one strand shown; medium: in vitro; concentration: 940 nM top; notes: 60-bp whole probe; with: salmon DNA 0.4 mg/ml; baseline: random background probes; direction: higher = stronger binding; all sequences stand within: GCCTAGCAC … GTCTTGATTCGCTTGACGCTGCTG
Target: Interferon regulatory factor 5, full length, phosphomimetic (IRF5, Homo sapiens, UniProt Q13568-2, residues 1-514, S451D/S453D/S456D/S462D)
| Oligonucleotide | fitted relative affinity [z-score] |
| --- | --- |
| TCTCCTACAGGTTCTCTGAGAGTGCTA | 0.731 |
| GACGATTTCAGACTGGAGACGTGCTAG | -0.271 |
| TTAGAACTGAGTATCGTTTAGTGCTAG | 2.27 |
| CTAGGTATCCTTTTCCTTTAGTGCTAG | 0.479 |
| GACGGTTTCGGCCTCGGGACGTGCTAG | 8.09 |
| ATGGCTCTCTGGACTGTGTGTGTGCTA | 0.0585 |
| GACGGTTTAGGGTATCGGGACGTGCTA | 0.853 |
| GGAGGTCTGGATGTGCCGCGGTGCTAG | -0.553 |
| TTAGAACAGGGGACTGGATTAGTGCTA | 0.485 |
| TCACCTTTCAATCCTAGACTGTGCTAG | 1.23 |
| TCATTTATGGTTTTTTTACTGTGCTAG | 0.719 |
| TTAGATATCAGTATCGCTTAGTGCTAG | 1.72 |
| TCATTTTACTTTCTATGACTGTGCTAG | 2.29 |

Mixed results
| Substance | target | test | test system | conditions | scale | quantity | result |
| --- | --- | --- | --- | --- | --- | --- | --- |
| PhoQ, residues 284 288 289 292 302 303 AGGCYF | PhoP, residues 12 14 15 18 19 IFFTR (Escherichia coli, UniProt P23836) | Sort-seq, measured: YFP reporter | E. coli | PhoQ-PhoP variant library, with: 10 µM Mg2+ | baseline: high Mg2+ state, higher = stronger signaling | fold induction | 15.2 |
